Measurements pooled from the literature.
A part holds a random share of what one study measured. Changes are numbered by the printed parent chain.

Study 1 — technique: aptamer microarray, sandwich; molecule type: DNA with 2'F-ANA; medium: in vitro; concentration: 200 nM; with: Cy3 exosite-II aptamer, 400 nM; direction: higher = stronger binding; sequence: GGTTGGTGTGGTTGG
Target: Prothrombin, mature alpha-thrombin (F2, Homo sapiens, UniProt P00734)
Setting: whole 15-mer aptamer, many near background
Modification | mean fluorescence intensity [a.u.]
2'F-ANA at 1 4 10 11 14 15 | 56.4
2'F-ANA at 1 3 8 10 11 12 | 137
2'F-ANA at 7 11 13 | 533
2'F-ANA at 2 3 10 13 15 | 340
2'F-ANA at 1 2 5 6 8 9 11 12 15 | 91.3
2'F-ANA at 1 2 4 5 12 | 124
2'F-ANA at 1 3 11 15 | 284
2'F-ANA at 7 11 12 13 | 751
2'F-ANA at 2 3 7 8 10 12 13 | 413
2'F-ANA at 1 4 5 7 8 11 13 14 15 | 52.5
2'F-ANA at 1 2 3 4 6 7 9 10 11 12 | 62.3
2'F-ANA at 2 5 9 10 13 14 | 46.6
2'F-ANA at 1 5 6 8 10 11 12 13 14 | 47.4
2'F-ANA at 1 2 3 5 6 7 8 10 12 13 14 | 50.9
2'F-ANA at 1 3 5 7 11 14 15 | 46.5
2'F-ANA at 1 2 3 4 5 7 9 15 | 63
2'F-ANA at 3 5 6 7 8 11 12 15 | 209
2'F-ANA at 1 2 5 6 7 8 9 10 12 13 15 | 49.3
2'F-ANA at 1 2 3 4 6 9 10 15 | 56.8
2'F-ANA at 5 9 11 13 14 | 88.1
2'F-ANA at 1 5 11 | 51.3
2'F-ANA at 3 8 9 11 12 13 15 | 1110
2'F-ANA at 3 5 6 7 10 14 15 | 57.7
2'F-ANA at 1 2 3 9 13 14 | 78.3
2'F-ANA at 1 4 5 6 7 9 11 12 13 15 | 61.5

Study 2 — target: CCNA2, cyclin fold, Cln2 fusion (human); technique: yeast growth competition, sequencing; medium: yeast; setting: strong parent motif; baseline: not given; direction: higher = stronger binding
Starting sequence: RBL1 docking peptide (human); GSAKRRLFGEDPP; partner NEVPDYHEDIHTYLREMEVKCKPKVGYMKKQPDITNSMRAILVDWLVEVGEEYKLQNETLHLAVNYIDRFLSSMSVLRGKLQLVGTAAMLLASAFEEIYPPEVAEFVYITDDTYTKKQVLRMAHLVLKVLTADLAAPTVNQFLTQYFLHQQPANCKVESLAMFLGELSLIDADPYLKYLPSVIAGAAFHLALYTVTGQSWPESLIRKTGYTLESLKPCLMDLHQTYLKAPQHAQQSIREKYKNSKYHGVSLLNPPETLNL
Change | normalised enrichment score
QSAKRRLFGEDPP [G1Q] | 5.72
GSAKRRFFGEDPP [L7F] | 0.796
GSAKRRLFPEDPP [G9P] | 6.2
GSAKRRLFGEDPV [P13V] | 7.01
GSAKRRLFGEDEP [P12E] | 6.71
GSAKRRLFGEDPR [P13R] | 6.03
GSAKRRLFGEDMP [P12M] | 5.66
GSEKRRLFGEDPP [A3E] | 0.614
GSAKRRLFGEMPP [D11M] | 5.24
SSAKRRLFGEDPP [G1S] | 5.19
GSAKRRLFGEDPG [P13G] | 5.51
GSAKRRLFGEDQP [P12Q] | 5.43
GEAKRRLFGEDPP [S2E] | 4.03
GSAKVRLFGEDPP [R5V] | 1.62
GSAKRRLFGECPP [D11C] | 6.01
GSAKRRMFGEDPP [L7M] | 1.51
GSAKSRLFGEDPP [R5S] | 1.13

Study 3 — technique: universal PBM; molecule type: double-stranded DNA, one strand shown; medium: in vitro; concentration: not given; direction: higher = stronger binding
Target: Sal-like protein 4, full length isoform B (SALL4, Homo sapiens, UniProt Q9UJQ4-2, residues 1-616)
Setting: 8-mer, flanks averaged, mean of replicates
Sequence | E-score
GAAGAATA | 0.224
CGAAAAGC | -0.0287
ATTCCGGC | -0.224
GTTTGGCA | 0.0163
TAACGGTA | 0.133
AGCCTGAC | -0.206
CTTTGTGA | 0.0114
CAGATACG | -0.108
AAGGACCC | -0.334
AGACTAAC | -0.00818
AGACCACC | -0.209
GTTATAGA | 0.339
CCGTAAAC | -0.00606
CATCCCCC | -0.313
AGTAACGA | 0.133
GCGTCAGA | -0.1
AACCTCTA | 0.124
GGCAGGAA | -0.093
AGGAACGC | -0.259
CCATAACA | 0.266
CACAATAA | 0.303
CCGTCGAA | -0.157
ATCTACCA | 0.177
GCTGAGAA | -0.194
CCCTCTAG | -0.131

Study 4 — technique: RNA Bind-n-Seq; molecule type: RNA; medium: in vitro; concentration: 365 nM; baseline: no-protein control; direction: higher = stronger binding
Target: RNA binding protein fox-1 homolog 2, RRM domain, GST-SBP tag (RBFOX2, Homo sapiens, UniProt O43251-10, residues 100-194)
Setting: natural RNA segment, single round, ends assumed
Constant ends, left off below: GGGAGUUCUACAGUCCGACGAUC … UGGAAUUCUCGGGUGCCAA
Construct (chain): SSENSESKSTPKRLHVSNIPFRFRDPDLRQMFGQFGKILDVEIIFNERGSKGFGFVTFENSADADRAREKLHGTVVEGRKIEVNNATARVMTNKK
Sequence | RBNS enrichment (R)
GGCUGGCUAAUGCCAGCUCUCGGGGGCAGACUGGCUAGGUGUUUGUCCCUUGCACCCUAUGAUUAUUCUCAUGCUGCACUUACUGUUUACAUUUGUUUUAUUGUACAUAG | 0.87
AAAUCCUAGGAAACUGGAGCAACUGGUACAACUGGUCACCUACUCUUGCCCCUCUGUAAAUCAAGCCAACUGUGACCAUCCAAUGUGCCAUCUUACAGGGAAAAGUUAUA | 0.284
UUUCACUGUUCGAGGCACAUGGUUAUUGGCUAUCCAUUUAGUUUUCACAGAGGCUGACCACCUUACACUGCUGGGUGGUCACAACUGCUCACCAUGUGAACAUAGUACCU | 0.295
ACCGAGCCUGGCACAGCUCCCCUAUCCAUUGCCAGAUGAAUGUAUAAUGCUAGAUGAAGCUGUGAACCCCCCCCCCCCCUCCUGCUGAUAGAGCAGGGCAUGGGUGCUGG | 1.45
UCAGGUUUAUAGCUGUUGUGUUUAAAGAUUGAAAAAAGUGGAAAACAUCUUUGUACAUUUAAGUCUGUAUUAUAAUAAGCAAAAAGAUUGUGUGUAUGUAUGUUUAAUAU | 0.722
GCAGAAGCAUAGAUUUAAUUGCAUCUUUAUUUUGAAAAACAAAUGAAAAUUGAUGGGGUUUAAAGCUACAGAGGCACUGACCUUUUUCUAGUUAUUGUAUUGCUACAAUU | 0.657
CUAUUAUGUUGGCAGUGGGUGGCAGGCAGAGGCAGGCACGCGAUUAGUAGAGCCCUGCUUGGGCCUCACUUUGUGGACACCAGGCUGGUGCACCUCCCUUUUCAGGCACU | 2.32
AAGUCUCCUCCUCUGACUGGUUUCAGGAAAUCAAGAAGUUUGAAUCACAUACUCAUUUUACUUGAAAUUAUGUCACUAGACAACUUAUAUUUUGGAGUCUUGAGAUUGUU | 0.278
AGUAUAUUGUCAUGUGAAAGUGUGGAAUGGAAGAAAUGUCGAUCCUGUUGUAACUGAUUGUGAACACUUUUAUGAGCUUUAAAAUAAAGUUCAUCUUAUGGUGUCAUUUC | 0.636
CAGCUGCGCCCCCCUCCCAUCCUUUCCUAUGAGAAGCCACUGCUUUGGGGGCGCCGGCUAGAAAAAGUAGGGUGCGGUGGCCAGGAGGGCCCCUGCCGCGCGGGGGGCUG | 0.365
UUCUUUUGUCCAUGCUCUCAUUGCUGAUUUGUUCUUGCAGGACUUAGAGCACUUUGUUAAUGUUCUUCCAUUCACUCCAACAGCGUCCUCAGAAAGAGACAGAAUAAAAA | 0.83
GGUGGGGGGGUAGGGGAAAGCCACUUUUCCCGGAGGCUUCUCCUCCUCUGCCUGGCCUGUUCCUGUCCCUGUCUUCCUACCUCUAUAGCAAGCCCAAAGUGUCUUUUCAG | 0.593

Study 5 — technique: RNA Bind-n-Seq; molecule type: RNA; medium: in vitro; concentration: not given; baseline: input RNA pool; direction: higher = stronger binding
Target: RING finger protein unkempt homolog, zinc fingers 1-6, GST-SBP tag (UNK, Homo sapiens, UniProt Q9C0B0, residues 30-357)
Setting: RNA with constant flanks, human and mouse sites, ends assumed
Constant ends, left off below: GGGAGUUCUACAGUCCGACGAUC … CAACAGAGGAUUGAGCAUCA
Construct (chain): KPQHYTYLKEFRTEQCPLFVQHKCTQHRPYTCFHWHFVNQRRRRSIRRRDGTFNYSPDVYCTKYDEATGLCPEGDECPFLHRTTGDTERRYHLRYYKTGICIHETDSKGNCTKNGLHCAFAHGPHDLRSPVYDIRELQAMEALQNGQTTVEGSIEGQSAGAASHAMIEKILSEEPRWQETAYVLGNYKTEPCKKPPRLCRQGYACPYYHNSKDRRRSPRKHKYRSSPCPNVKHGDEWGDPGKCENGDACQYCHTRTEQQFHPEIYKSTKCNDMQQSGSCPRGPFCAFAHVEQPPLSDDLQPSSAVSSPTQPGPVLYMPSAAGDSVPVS
Sequence | bound/input enrichment
UUAGUAGAUAGUAUGGGAAGAACGGAAGCUCCUGUUGUCUCUUACUUUUGUUCUCUAACCUGUUUUGUAAAGUCCUCUGAUAUGUUGAACUAAUUAAUGUAAUAUCAGAAAGGUUUCUAG | 0.522 ratio
AACGUUCUGGAUGCCAACCUCUGCUUAAAGGGAGAAGACUUGGAUUCUCAGGUCGGGGUGAUUGACUUCUCUCUCUGUCUGAAGGACGCACAGGAUCUUGACAGCGGCAGAGAGCAUGAA | 0.286 ratio
CUGCCCCUGCUCCUGCGUAACGUGCGACUGGCCCUGCUGCCCUCAGACUGCCUGAAGAAUGCCGUAUCUGGAGAGGCCCUCCUCAUGGCGGACGAGUGCACCAAGCUCAUCUUAGACGAG | 0.177 ratio
GCAGAUGAAGCAGAGAGUCUCAAACUGUGGAACUCAUUCUGUAAUUCUGAUGACCCCUACAACCCUUUAAAUUUUAAGGCUCCUUUUCAAACAUCAGGGGAAAAUGAGAAAGGCUGUCGU | 0.0689 ratio
GUGACAUCUAAUGAGGUGUGAGCACGGAAGGUUCUUUUUUUCAGUGGCUCUUUUGUCAGAACUAGAGUCAGCCAUCACCCUCGCAGCAACCACCUGACUGCAGGUCAGAUCUCCCCCAGG | 0.161 ratio
ACCGCAGCUGCUGCGCCUAUGAUUGGCUAUCCCAUGCCAACAGGGUAUUCUCAAUAAGACUUUAGAAGUAUAUGUAAAUGUCUGUUUUUCAUAAUUGCUCUUUAUAUUGUGUGUUAUCAG | 0.751 ratio
GAUCAUCCAGGCUUAAAGGCUAAAGAAAAUGAUGAAAAUUGUGGUCCUACUACCACUGUUUUUGUUGGCAACAUUUCCGAGAAAGCUUCAGACAUGCUUAUAAGACAACUCUUAGCUAAA | 0.254 ratio
GACCGUGCCCUAGAAUUUGCCCCUGCCUGCCAUCGAUUCAAAAUUCUCAAAGCAGAAUGUUUAGCAAUGCUUGGUCGAUACCCAGAAGCACAGUUUGUGGCCAGUGACAUUUUACGAAUG | 0.327 ratio
CAGAGCCCUCCAUAUAUGGGUGCCACAUCUCCACCCAAAGACAAGAAACGCCCAACACCUUUAGAGAUUGGUUACUCUUCUUCUCACCUUCGGGCAGACCCCACAGUCCAGCUGGCUCCU | 0.487 ratio
UGUAGACCAGGCUGGCCUUGAACUCAUGGAGACCUGCCUACCUCUGCCUUCUAAGUGUUGAGAUUAAUGGCGUGAGCCACCAAUUGUGAAAAAGUUGUGAACUUCCCCUCUUCCCAAAGU | 0.246 ratio
UGCUUGAUUUUGGCUUGGCUCGACAAUUUACUAAUUCCUGUGGUGACGUCAGACCACCUCGUGCUGUGGCAGGCUUUCGAGGGACAGUUCGUUAUGCAUCAAUCAAUGCUCAUCGGAACA | 0.163 ratio
